Experimental data of several laboratories.
Each numbered part is a random draw from the data of one study; scales do not carry over between parts.

Block 1
Target: Histone acetyltransferase KAT6A, winged helix 1, GST fusion (KAT6A, Homo sapiens, UniProt Q92794, residues 1-85)
Method: protein binding microarray
Form: double-stranded DNA, one strand shown
Sample: in vitro
Concentration: not given
Notes: 8-mer, flanks averaged, mean of 2 arrays, mostly near background
Baseline: not given
Reading: higher = stronger binding
Construct (chain): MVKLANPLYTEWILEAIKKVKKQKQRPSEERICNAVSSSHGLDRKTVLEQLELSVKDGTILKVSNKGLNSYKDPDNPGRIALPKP
| Sequence | E-score |
| --- | --- |
| ACGCACCA | 0.129 |
| CCTATATA | -0.134 |
| GATACTCA | 0.0471 |
| GATGGTTA | -0.09 |
| CTTCCTTC | -0.088 |
| CAATCCTC | -0.179 |
| CTAAGACA | 0.00789 |
| TAACCCTA | -0.169 |
| AGGGAATG | -0.104 |
| CTGCTACC | -0.122 |
| CTGCACAC | -0.21 |
| CCTAGACG | 0.0053 |
| CACTGCCG | 0.226 |
| AAACTGTA | -0.0562 |
| GCTTGTAA | -0.0193 |
| ATTTCAGA | -0.233 |
| CTGCCAGA | -0.2 |
| CGCCACAA | 0.0922 |
| AGTAGGAA | -0.229 |
| CGGTCGCC | 0.257 |
| TATGGAGA | -0.141 |
| AAACATCC | -0.103 |
| GGAGGTAA | -0.237 |
| CCCCTCTA | -0.22 |
| ACGGGTCC | 0.351 |

Block 2
Target: RING finger protein unkempt homolog, zinc fingers 1-6, GST-SBP tag (UNK, Homo sapiens, UniProt Q9C0B0, residues 30-357)
Method: RNA Bind-n-Seq
Form: RNA
Sample: in vitro
Concentration: not given
Notes: RNA with constant flanks, ends assumed
Baseline: input RNA pool
Reading: higher = stronger binding
Shared flanks, not repeated: GGGAGUUCUACAGUCCGACGAUC … CAACAGAGGAUUGAGCAUCA
Residues (chain): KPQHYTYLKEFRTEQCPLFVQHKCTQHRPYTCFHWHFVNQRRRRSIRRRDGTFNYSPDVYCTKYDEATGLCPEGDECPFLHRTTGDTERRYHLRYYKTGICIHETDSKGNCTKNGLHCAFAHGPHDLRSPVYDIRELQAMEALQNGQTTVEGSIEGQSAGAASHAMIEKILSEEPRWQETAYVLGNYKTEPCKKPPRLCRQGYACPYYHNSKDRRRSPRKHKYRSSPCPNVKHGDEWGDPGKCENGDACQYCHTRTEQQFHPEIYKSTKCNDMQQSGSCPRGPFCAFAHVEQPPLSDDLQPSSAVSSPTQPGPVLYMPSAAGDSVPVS
| Sequence | bound/input enrichment [ratio] |
| --- | --- |
| AUUUUAUACCCCAAUAAUCAACUCGUUUUUAUAUUAAUGUACUUGUUUCUCUGUUGUAAGAACCGGCAUUAACACAAAGGAGGCGUCUCGGGAGAGGAUUAGGUUCCAUCCUUUACGUGU | 2.84 |
| GGGGUGCCAGCGCUGACGCAGAACCUACCAAGGAUACUCAGAAAAGAACGUCCUAUAUCAUCCGGGAUUUUCCCUCUACCUGCUGGAGAUGGAUUGCUUACACCUGACACUCAGAAAGGA | 0.145 |
| UUUCGCCUGGCGCUGGGCAGCUUCGUGGAAGAGUACAACAACAAGGUUCAGCUUGUUGGUUCCGAUGAGGAGAGUUCAGAGUUUAUUUGCCGAAACACCUUUGACCACCCGUACCCUACC | 0.131 |
| GAAAGCACUACCCUAAGCCAUGAGGAUCUCCAUGCUUUGCUAACCAAGAUAACUGUUUUCUCUUUGCCGAAGUUUUGUUUUUGAAAUGUGUAUUUCUAAUUAUAUAAAAUAUUAAGAAUC | 0.456 |
| GUUGGAGAUACUCAGGUGGUGGUUUUUAAGCAUGAAAAGGAAGAUGGCGCCAUUUCUACCACCGUACUUCGAGGCUCUACAGACAAUCUGAUGGAUGACAUAGAAAGGGCAGUAGACGAU | 0.673 |
| CUAGAGAUUUACUACAUCCGUCCUUGGAAGAGGAAAAGAAAAAACAUAAAAAGAAACGCCCCGUACAAAGUCCAAAUUCUUACUUUAUGGAUGUAAAAUGUCCAGGUUGCUACAAGAUCA | 0.488 |
| AAAGAUGGAGAAAAGCAAGAUCUUUGAUAUCUUUCAUGUUUGCCUGCAGUUGAACAAUACUUCCGAGUACUUUUUAAAAUUAUUUCUCACAAAGAAAUGAAUGUACAAUCCAAUGAAAAC | 0.076 |
| AUAGCUUUCCAAAAGAAGCUCUUUCAGACCCUGAGGAGACACCCUUCCUAUCCCAAAAUAACCGAAGAAUUUGUUAGUGGCCUGGAGUCUUACAUUGAGGAUGAAGACAGUUUCAGGAAC | 0.222 |
| ACUGAGCAGAAUGAAGAGUUGAGUAUCUUAUAUCCAGCUGCCAUUGUGACUAUUGAUGGAUUCCGCCUUUUUCAAUCUCUUCGUGCUUGUCGAAAUCAGGUAGCAAAAGCUGCAGCAUCA | 0.153 |
| GGCCAGGAGCGAUUUCACACCAUCACAACCUCCUACUACAGAGGAGCAAUGGGCAUCAUGCCCGUGUAUGACAUCACCAACGGUAAAAGCUUUGAGAACAUCAGCAAGUGGCUUAGAAAC | 0.299 |
| GAGUUCCGAUCUGGAAAGGCUCCUAUCCUCAUUGCCACGGAUGUAGCCUCCCGUGGGCCCGAUGUGGAAGAUGUCAAGUUUGUCAUCAACUACGAUUAUCCAAACAGCUCAGAGGAUUAU | 0.143 |

Block 3
Target: Centromere-binding protein 1, full length, His-tagged (CBF1, Saccharomyces cerevisiae, UniProt P17106, residues 1-351)
Chain of UniProt P17106 (whole entry, looked up): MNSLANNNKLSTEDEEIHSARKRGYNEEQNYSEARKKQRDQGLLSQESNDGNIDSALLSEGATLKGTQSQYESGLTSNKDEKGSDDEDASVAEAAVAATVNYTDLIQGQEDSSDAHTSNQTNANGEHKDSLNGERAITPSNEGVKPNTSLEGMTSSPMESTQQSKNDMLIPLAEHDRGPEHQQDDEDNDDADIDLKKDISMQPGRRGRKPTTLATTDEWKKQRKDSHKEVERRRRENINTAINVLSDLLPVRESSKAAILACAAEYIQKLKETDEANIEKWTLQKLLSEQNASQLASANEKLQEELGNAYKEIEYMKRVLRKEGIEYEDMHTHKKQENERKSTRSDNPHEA
Method: competition protein-binding microarray
Form: double-stranded DNA, one strand shown
Sample: in vitro
Concentration: 2 µM
Notes: whole 60-bp probe, lowest competitor level
With: Pho4 competitor, 0.05 µM
Reading: higher = stronger binding
Shared flanks, not repeated: … GTCTTGATTCGCTTGACGCTGCTG
| Sequence | fluorescence intensity |
| --- | --- |
| ATACCGGCTCGATAACATGTGTCAAATTCTCACCGG | 133 a.u. |
| TCATGAGATTGGATGATCGTGCCGATAGACTAGCAG | 86.7 a.u. |
| ACAACGGGGAACCGCACCGTGATGGCACCTAGCCCA | 59.4 a.u. |
| CTAAGGCTGATGCTCAACGTGAAAAGGCTTTGAACG | 84.6 a.u. |
| TCCTTCTACAATCCTTTCGTGACGAATATTGAATCA | 102 a.u. |
| GCCGGCCTTTATACCCACGGGTGCATCTTCAAAGAC | 70.9 a.u. |
| AAAGCGGTAATTTGGCTCGTGGGTGCAGATATCTAT | 81.3 a.u. |
| ATGGCAACGAGGTCGCACACGCCAGACACCCAGACC | 80 a.u. |
| GCCTATAACAGCACCAACGTGCGGAATACTGATTGC | 87 a.u. |
| AGGATAATCAGCTCTGTCGTGACGGATAAATGCTAT | 146 a.u. |
| CTTCTGTAAATTTGTCACCTAACTTGACGCGCCCCG | 76.2 a.u. |
| TGTGGCTACGCTGGTCACGTGTTAGCAGAAGTCTTA | 11600 a.u. |
| CGGACAATATCGGTACTCGTGAAACATTTCTTGCTG | 137 a.u. |
| AATATGCACTGCAACTTCGTGCTTTATTTCAATATC | 80.1 a.u. |
| CCTCACTCTTTTCCTCTCGTGACGGATTCAACATCA | 244 a.u. |
| GTCTTGTCTCATTGACCAGTGGGTGTCCCCACTTCA | 67.1 a.u. |
| AAATTACTAAGTTGCGAGGTGGGTGACGCCGTATGA | 60.5 a.u. |
| GACAGATGTGGAGTCAGCGTGGGTAGTGGGGTAACA | 79.7 a.u. |
| AAAGCGGTAATTTGAGCCGTGGGTGCAGATATCTAT | 84.4 a.u. |
| AAATTACTAAGTTTTCACGTGTTCTACCCCGTATGA | 1520 a.u. |
| CGGGGTTAAGTTTGTTAAGTGGGTGGCTTGCAGCAG | 73.5 a.u. |
| CCTGGCACTCGCTATTTCGTGACGGCGTTCCAGGAC | 62.8 a.u. |
| GGGACCTCCAGCAAGCACATGGCATCCTTTTATAAG | 128 a.u. |
| GTCTTGTCTCATTGGCTTGTGGGTGTCCCCACTTCA | 73 a.u. |
| TCCGATGGTACTCATGTAGCTGCCTCATACGAGACC | 60.5 a.u. |

Block 4
Target: Fragile X messenger ribonucleoprotein 1, C-terminal low-complexity region (Fmr1, Mus musculus, UniProt P35922)
Method: RNA Bind-n-Seq
Form: RNA
Sample: in vitro
Concentration: 200 nM
Notes: whole 134-nt RNA, ends assumed
With: 150 mM KCl
Baseline: input library
Reading: higher = stronger binding
Shared flanks, not repeated: GGGAGUUCUACAGUCCGACGAUC … UGGAAUUCUCGGGUGUCAAGG
| Sequence | log2 enrichment |
| --- | --- |
| UAACUUGAGAGGAGGAUCUGAUGGAUAUGGCAGUGGACGUGGAUUUGGGGAUGGCUAUAAUGGGUAUGGAGGAGGACCUGGAGGUGGCAA | 0.276 |
| UCAAGUCCUGUGCUACACAUCGUAUGUACCGAAUCGGAAAAAGGUGGAAAAAGGAAAGUAUUAUGUUACGCCGUUCGGAUCUGCACUUCC | -0.494 |
| UUUCCAAGAAGUGCACUGAAAAUGACAUCCGAGUCAUGUUCUCUUCGUUUGGACAGAUUGAAGAAUGCCGGAUAUUGCGGGGACCUGAUG | 0.00412 |
| CCUCAAGUCCUGUGCUACACAUCGUAUGUACCGAAUCGGGUGGGUGGGUGGGAAAGUAUUAUGUUACGCCGUUCGGAUCUGCACUUCCAG | 0.784 |
| UUGUGUUCGUGAAUUGUAACUCCAGAAGCAAUGCCUGUACAAGCUCCACAAUGGACGGAUUUCCUCUCCUGCCCAAUUUGCACUCAGACU | 0.928 |
| CUGUGCUACACAUCGUAUGUACCGAAUCAAAUUUUUUUAAACCCCCCCAAACCCCCCCAAAAAAGUAUUAUGUUACGCCGUUCGGAUCUG | -0.683 |
| UCCUGUGCUACACAUCGUAUGUACCGAAUCGGGCCCCCGGGGCCCCCGGGCCCCCGGGGAAAGUAUUAUGUUACGCCGUUCGGAUCUGCA | -0.974 |
| ACCAUGCAGGUGGGCAUCUUUGGGAAGUGGCGCAAGGGGGGGAUAGGGAGGGGGGUAACACUUUGGGAACAGGUGGUCCCAGGUCGUUUC | 0.997 |
| CUCAAGUCCUGUGCUACACAUCGUAUGUACCGAAUCGGGCCGGCCGGGCCGGGGAAAGUAUUAUGUUACGCCGUUCGGAUCUGCACUUCC | -0.201 |
| UCCUGUGCUACACAUCGUAUGUACCGAAUCGGAAAAAAAGGUUUUUUUGGAAAAAAAGGAAAGUAUUAUGUUACGCCGUUCGGAUCUGCA | -0.823 |
| CUCAAGUCCUGUGCUACACAUCGUAUGUACCGAAUCGGAGGAAAGGUUUUUGGAAAGUAUUAUGUUACGCCGUUCGGAUCUGCACUUCCA | -0.477 |
| CCUCAAGUCCUGUGCUACACAUCGUAUGUACCGAAUCGGAGGGGAGGGGAGGAAAGUAUUAUGUUACGCCGUUCGGAUCUGCACUUCCAG | 0.444 |
| UCCUGUGCUACACAUCGUAUGUACCGAAUCGGGGAAAAAAAGGGGUUUUUGGGGAGGGGAAAGUAUUAUGUUACGCCGUUCGGAUCUGCA | 0.645 |
| CACAGACUACACGCACCCACACAGACACAGAGGGAAGGGGUUGGGAUGGGGACAGGGUGCACAGCAGGGCGGGGUAGGACCCCAGCCCCU | 1.38 |

Some of these lines once more (block 2):
| Sequence | bound/input enrichment [ratio] |
| --- | --- |
| AUAGCUUUCCAAAAGAAGCUCUUUCAGACCCUGAGGAGACACCCUUCCUAUCCCAAAAUAACCGAAGAAUUUGUUAGUGGCCUGGAGUCUUACAUUGAGGAUGAAGACAGUUUCAGGAAC | 0.222 |
| GUUGGAGAUACUCAGGUGGUGGUUUUUAAGCAUGAAAAGGAAGAUGGCGCCAUUUCUACCACCGUACUUCGAGGCUCUACAGACAAUCUGAUGGAUGACAUAGAAAGGGCAGUAGACGAU | 0.673 |
| ACUGAGCAGAAUGAAGAGUUGAGUAUCUUAUAUCCAGCUGCCAUUGUGACUAUUGAUGGAUUCCGCCUUUUUCAAUCUCUUCGUGCUUGUCGAAAUCAGGUAGCAAAAGCUGCAGCAUCA | 0.153 |
| AAAGAUGGAGAAAAGCAAGAUCUUUGAUAUCUUUCAUGUUUGCCUGCAGUUGAACAAUACUUCCGAGUACUUUUUAAAAUUAUUUCUCACAAAGAAAUGAAUGUACAAUCCAAUGAAAAC | 0.076 |
| GAGUUCCGAUCUGGAAAGGCUCCUAUCCUCAUUGCCACGGAUGUAGCCUCCCGUGGGCCCGAUGUGGAAGAUGUCAAGUUUGUCAUCAACUACGAUUAUCCAAACAGCUCAGAGGAUUAU | 0.143 |
| GGCCAGGAGCGAUUUCACACCAUCACAACCUCCUACUACAGAGGAGCAAUGGGCAUCAUGCCCGUGUAUGACAUCACCAACGGUAAAAGCUUUGAGAACAUCAGCAAGUGGCUUAGAAAC | 0.299 |
| AUUUUAUACCCCAAUAAUCAACUCGUUUUUAUAUUAAUGUACUUGUUUCUCUGUUGUAAGAACCGGCAUUAACACAAAGGAGGCGUCUCGGGAGAGGAUUAGGUUCCAUCCUUUACGUGU | 2.84 |
| GGGGUGCCAGCGCUGACGCAGAACCUACCAAGGAUACUCAGAAAAGAACGUCCUAUAUCAUCCGGGAUUUUCCCUCUACCUGCUGGAGAUGGAUUGCUUACACCUGACACUCAGAAAGGA | 0.145 |
